{"data": "Experimental data gathered from unrelated publications", "B1": "disulfide; chain MRGSHHHHHHGSNEKGETSEKTIVRANGTRLEYTDIKSDGIEGRVDGGGGSDDDDKMACQPRNLNNCGGGS (disulfide 59-67 (inferred))", "note": "± marks the error that the study gave. Bridges are numbered along the chain shown (N, C = ends)."}
{"Substance": "Cc1ccc(S(=O)(=O)N2C(=O)CSC2c2ccccc2)cc1 (stereo not drawn)", "organism": "herpes simplex virus 2", "test": "viral cytopathicity", "test system": "HEL, G", "EC50": "> 100 µM"}
{"Substance": "N=C(NO)NCC[C@H](N)C(=O)O", "organism": "Leishmania mexicana", "test": "parasite growth, resazurin", "setting": "5 days, promastigote", "EC50": "3000 µM"}
{"Substance": "[H]/N=C(/N)NS(=O)(=O)c1ccc(N)cc1", "organism": "Human gammaherpesvirus 8", "test": "latent viral DNA", "test system": "BC-3", "EC50": "21 ± 5 µg/mL"}
{"Substance": "Cc1c(C(=O)C(=O)NCc2cn(CCCCCCCCCCCCCCn3cc(CNC(=O)C(=O)c4c(C)c(C(=O)Nc5ccc(F)c(F)c5)n(C)c4C)nn3)nn2)c(C)n(C)c1C(=O)Nc1ccc(F)c(F)c1", "organism": "hepatitis B virus", "test": "viral replication, chemiluminescence immunoassay, measured: secreted HBeAg", "test system": "HBV-infected HepG2-NTCP cells", "setting": "7 days post-infection, dosed from 24 h pre-infection", "EC50": "0.098 ± 0.012 µM"}
{"Substance": "Cc1cn([C@H]2C[C@H](N=[N+]=[N-])[C@@H](CO)O2)c(=O)[nH]c1=O", "organism": "HIV-2", "test": "viral cytopathicity, MTT", "test system": "MT-4, ROD", "EC50": "0.0022 µM"}
{"Substance": "CSc1ccc(OCc2ncc([N+](=O)[O-])n2C)cc1", "organism": "Leishmania donovani", "test system": "intracellular amastigotes in macrophages, LdBOB, nitroreductase-overexpressing", "EC50": "3.2 ± 0.3 µM"}
{"Substance": "O=c1[nH]c(=O)n([C@H]2C[C@H](O)[C@@H](CO)O2)cc1/C=C/Br", "organism": "Human alphaherpesvirus 3", "test": "viral replication", "test system": "HEL, TK-deficient 07-1 and YS-R", "EC50": "26 to 165 µM"}
{"Substance": "C[C@H](Cn1cnc2c(N)ncnc21)OCP(=O)(O)O", "organism": "human alphaherpesvirus 1", "test": "viral replication", "test system": "HEL", "setting": "72 h", "EC50": "132 ± 20 µg/mL"}
{"Substance": "COC(=O)N[C@H](C(=O)N1CCC[C@H]1c1ncc(-c2ccc(-c3ccc(-c4cnc([C@@H]5CCCN5C(=O)[C@@H](NC(=O)OC)C(C)C)[nH]4)cc3)cc2)[nH]1)C(C)C", "organism": "hepatitis C virus", "test": "viral replication, transient replicon", "test system": "genotype 1b replicon NS5A Y93H", "EC50": "4.9e-05 ± 1.3e-05 µM"}
{"Substance": "O=C(Cc1csc2nc(-c3ccc(Br)cc3)cn12)NN=C1CCC(c2ccc(O)cc2)CC1 (stereo not drawn)", "organism": "feline coronavirus", "test": "viral cytopathic effect", "test system": "CRFK", "EC50": "> 100 µg/mL"}
{"Substance": "C[C@@]1(O)[C@H](O)[C@@H](CO)O[C@H]1n1ccc(=O)[nH]c1=O", "organism": "hepatitis C virus", "test": "viral replication, luciferase reporter", "test system": "genotype 1b Con1 replicon", "setting": "72 h", "EC50": "6.31 µM"}
{"Substance": "Nc1ncnc2c1ncn2[C@@H]1O[C@H](CO)C(O)C1(F)Br (stereo in doubt)", "organism": "hepatitis C virus", "test": "viral replication", "test system": "Huh-7, genotype 1b replicon", "EC50": "> 10 µM"}
{"Substance": "O=c1[nH]c(=O)c2ncn(CC(CO)OCP(=O)(O)O)c2[nH]1 (racemic)", "organism": "Human alphaherpesvirus 3", "test": "plaque formation, inhibitor", "test system": "HEL", "EC50": "27.1 µM"}
{"Substance": "CCN(CC)S(=O)(=O)c1ccc(C(=O)Nc2cc(C)nn2-c2nc(C)c(C)c(=O)[nH]2)cc1", "organism": "Leishmania amazonensis", "test": "alamarBlue", "test system": "axenic amastigotes", "setting": "72 h", "EC50": "0.24 ± 0.07 µM"}
{"Substance": "COc1ccc(Cn2c(SC(C)C(=O)Nc3ccc(C)cc3Cl)nc3ccccc32)cc1 (stereo not drawn)", "organism": "Measles morbillivirus", "test": "viral replication", "test system": "Alaska", "EC50": "0.4 µM"}
{"Substance": "O=S(=O)(c1cccs1)N1CCCCN2[C@H](CO)[C@@H](c3ccc(/C=C/c4ccccc4)cc3)[C@@H]2C1", "organism": "Respiratory syncytial virus", "test": "cytopathic effect", "test system": "A2", "EC50": "1.7 µM"}
{"Substance": "O=C(Cc1csc2nc(-c3ccc(Br)cc3)cn12)NN=C1CCCCC1", "organism": "feline coronavirus", "test": "viral cytopathic effect", "test system": "CRFK", "EC50": "> 100 µg/mL"}
{"Substance": "Nc1nc2c(ncn2COC(CO)CO)c(=O)[nH]1", "organism": "human alphaherpesvirus 1", "test": "viral replication", "test system": "HEL cells", "EC50": "2 µM"}
{"Substance": "O=C(N[C@@H]1CCCc2c1[nH]c1ccc(Cl)cc21)c1ccccn1", "organism": "Human papillomavirus 16", "test": "viral DNA level, hybrid capture, measured: episomal HPV16 DNA", "test system": "W12-20850", "setting": "96 h", "EC50": "0.005 µM"}
{"Substance": "Cc1oncc1C(=O)Nc1ccc(C(F)(F)F)cc1", "organism": "human coronavirus OC43", "test": "cytopathic effect, CellTiter-Glo", "test system": "Huh-7", "setting": "7 d", "EC50": "> 100 µM"}
{"Substance": "Cc1ccc(S(=O)(=O)N2C(=O)CSC2c2ccccc2Cl)cc1 (stereo not drawn)", "organism": "HIV-2", "test": "viral cytopathicity, MTT", "test system": "MT-4, ROD", "EC50": "> 125 µM"}
{"Substance": "CC1=C(/C=C/C(C)=C/C=C/C(C)=C/C(=O)Nc2ccc(O)cc2)C(C)(C)CCC1", "organism": "human respiratory syncytial virus", "test": "viral replication", "test system": "BEAS-2B", "EC50": "3.6 µM"}
{"Substance": "O=c1[nH]c(=O)c2ncn(C[C@@H](CF)OCP(=O)(O)O)c2[nH]1", "organism": "Human alphaherpesvirus 3", "test": "plaque formation, inhibitor", "test system": "HEL", "EC50": "> 329 µM"}
{"Substance": "Nc1ncnc2c1ncn2CCOCP(=O)(O)O", "organism": "hepatitis B virus", "test": "viral replication", "test system": "HepG2.2.15", "EC50": "1 ± 0.2 µM"}
{"Substance": "CCCCCC[C@H]1C(=O)O[C@H](C)[C@H](NC(=O)c2cccc(NC=O)c2O)C(=O)O[C@@H](C)[C@@H]1OC(=O)CC(C)C", "organism": "Feline infectious peritonitis virus", "test": "viral replication, visual scoring", "setting": "48 h", "EC50": "75 µM"}
{"Substance": "Cc1ccc(S(=O)(=O)N2C(=O)CSC2c2ccc(C(C)C)cc2)cc1 (stereo not drawn)", "organism": "herpes simplex virus 2", "test": "viral cytopathicity", "test system": "HEL, G", "EC50": "> 100 µM"}
{"Substance": "N#Cc1nc(-c2ccccc2)oc1S(=O)(=O)c1ccc(Cl)cc1", "organism": "Leishmania amazonensis", "test": "alamarBlue", "test system": "axenic amastigotes", "setting": "72 h", "EC50": "0.051 ± 0.0037 µM"}
{"Substance": "CCCC(=O)OCSc1ccccc1C(=O)NCCC(N)=O", "organism": "HIV-1", "test": "viral replication", "test system": "human monocytes/macrophages, subtype B 91US005, CCR5-tropic", "EC50": "0.6 µM"}
{"Substance": "NC(=O)c1ncn([C@@H]2O[C@H](CO)[C@@H](O)[C@H]2O)n1", "organism": "human respiratory syncytial virus", "test": "viral replication", "test system": "BEAS-2B", "EC50": "2.6 µM"}
{"Substance": "CCc1c(C)nc(-n2nc(C)cc2NC(=O)c2ccccc2SC)[nH]c1=O", "organism": "Leishmania amazonensis", "test": "alamarBlue", "test system": "axenic amastigotes", "setting": "72 h", "EC50": "0.079 ± 0.0084 µM"}
{"Substance": "CCOP(=O)(OCC)[C@H]1C[C@@H](Cn2c(=O)n(C(=O)c3ccccc3)c(=O)c3ccccc32)ON1Cc1ccccc1 (relative stereo)", "organism": "human alphaherpesvirus 3", "test": "viral replication, plaque reduction", "test system": "HEL, Oka TK+", "EC50": "6.9 to 7.5 µM"}
{"Substance": "COc1cc([C@@H]2c3cc4c(cc3C(=O)[C@H]3COC(=O)[C@H]23)OCO4)cc(OC)c1OC", "organism": "Leishmania infantum", "test": "intracellular amastigote growth, iRFP fluorescence", "test system": "infected mouse splenocyte explants", "setting": "48 h", "EC50": "> 100 µM"}
{"Substance": "Cc1ccc(S(=O)(=O)N2C(=O)CSC2c2cccc([N+](=O)[O-])c2)cc1 (stereo not drawn)", "organism": "HIV-2", "test": "viral cytopathicity, MTT", "test system": "MT-4, ROD", "EC50": "> 125 µM"}
{"Substance": "B1", "organism": "Borrelia garinii", "test": "cyst to spirochete conversion, flow cytometry", "test system": "SKT-7.1", "setting": "16 h", "EC50": "0.83 µM"}
{"Substance": "O=C(N/N=C1\\C(=O)Nc2ccc(Cl)cc21)N/N=C1\\C(=O)Nc2ccc(Cl)cc21", "organism": "varicella-zoster virus", "test": "plaque formation", "test system": "HEL, TK-", "EC50": "> 20 µM"}
{"Substance": "Cc1ccc(S(=O)(=O)N2C(=O)CSC2c2ccccc2[N+](=O)[O-])cc1 (stereo not drawn)", "organism": "herpes simplex virus 2", "test": "viral cytopathicity", "test system": "HEL, G", "EC50": "> 100 µM"}
{"Substance": "COc1nc(N)nc2c1ncn2CCC(COP(=O)(N[C@@H](C)C(=O)OCc1ccccc1)Oc1ccccc1)COP(=O)(N[C@@H](C)C(=O)OCc1ccccc1)Oc1ccccc1 (stereo partly drawn)", "organism": "human alphaherpesvirus 1", "test": "viral replication", "test system": "HEL, KOS", "EC50": "> 100 µM"}
{"Substance": "NC(=O)c1ncn([C@@H]2O[C@H](CO)[C@@H](O)[C@H]2O)n1", "organism": "Coxsackievirus B4", "test": "viral cytopathic effect, visual CPE scoring", "test system": "HEp-2", "EC50": "183 µM"}
{"Substance": "O=c1[nH]cnc2c1ncn2[C@H]1CC[C@@H](CO)O1", "organism": "HIV-2", "test": "viral cytopathicity, MTT", "test system": "MT-4, ROD", "EC50": "19 µM"}
{"Substance": "CC(=CC(=O)NCCCCNc1cc(C(F)(F)F)nc2c(C(F)(F)F)cccc12)C(=O)NCCCCNc1cc(C(F)(F)F)nc2c(C(F)(F)F)cccc12", "organism": "Coxsackievirus B4", "test": "viral cytopathic effect, MTS", "test system": "HEp-2", "EC50": "1.5 µM"}
{"Substance": "Cc1ccc(S(=O)(=O)N2C(=O)CSC2c2cccc(Br)c2)cc1 (stereo not drawn)", "organism": "herpes simplex virus 2", "test": "viral cytopathicity", "test system": "HEL, G", "EC50": "> 100 µM"}
{"Substance": "COc1cc([C@@H]2c3cc4c(cc3C[C@H]3COC(=O)[C@@H]32)OCO4)cc(OC)c1OC", "organism": "Leishmania infantum", "test": "parasite growth", "setting": "promastigote", "EC50": "> 100 µM"}
{"note": "Excerpt of the above:"}
{"Substance": "CC(=CC(=O)NCCCCNc1cc(C(F)(F)F)nc2c(C(F)(F)F)cccc12)C(=O)NCCCCNc1cc(C(F)(F)F)nc2c(C(F)(F)F)cccc12", "organism": "Coxsackievirus B4", "test": "viral cytopathic effect, MTS", "test system": "HEp-2", "EC50": "1.5 µM"}
{"Substance": "O=C(Cc1csc2nc(-c3ccc(Br)cc3)cn12)NN=C1CCCCC1", "organism": "feline coronavirus", "test": "viral cytopathic effect", "test system": "CRFK", "EC50": "> 100 µg/mL"}
{"Substance": "NC(=O)c1ncn([C@@H]2O[C@H](CO)[C@@H](O)[C@H]2O)n1", "organism": "Coxsackievirus B4", "test": "viral cytopathic effect, visual CPE scoring", "test system": "HEp-2", "EC50": "183 µM"}
{"Substance": "Cc1oncc1C(=O)Nc1ccc(C(F)(F)F)cc1", "organism": "human coronavirus OC43", "test": "cytopathic effect, CellTiter-Glo", "test system": "Huh-7", "setting": "7 d", "EC50": "> 100 µM"}
{"Substance": "Cc1c(C(=O)C(=O)NCc2cn(CCCCCCCCCCCCCCn3cc(CNC(=O)C(=O)c4c(C)c(C(=O)Nc5ccc(F)c(F)c5)n(C)c4C)nn3)nn2)c(C)n(C)c1C(=O)Nc1ccc(F)c(F)c1", "organism": "hepatitis B virus", "test": "viral replication, chemiluminescence immunoassay, measured: secreted HBeAg", "test system": "HBV-infected HepG2-NTCP cells", "setting": "7 days post-infection, dosed from 24 h pre-infection", "EC50": "0.098 ± 0.012 µM"}
{"Substance": "Nc1nc2c(ncn2COC(CO)CO)c(=O)[nH]1", "organism": "human alphaherpesvirus 1", "test": "viral replication", "test system": "HEL cells", "EC50": "2 µM"}
